Measured values collected from several papers.
Parts stem from different laboratories: compare values within a part only.

Series 1
Target: Ras GTPase-activating protein-binding protein 1, full length (G3BP1, Homo sapiens, UniProt Q13283)
Sequence of UniProt Q13283 (whole entry, looked up): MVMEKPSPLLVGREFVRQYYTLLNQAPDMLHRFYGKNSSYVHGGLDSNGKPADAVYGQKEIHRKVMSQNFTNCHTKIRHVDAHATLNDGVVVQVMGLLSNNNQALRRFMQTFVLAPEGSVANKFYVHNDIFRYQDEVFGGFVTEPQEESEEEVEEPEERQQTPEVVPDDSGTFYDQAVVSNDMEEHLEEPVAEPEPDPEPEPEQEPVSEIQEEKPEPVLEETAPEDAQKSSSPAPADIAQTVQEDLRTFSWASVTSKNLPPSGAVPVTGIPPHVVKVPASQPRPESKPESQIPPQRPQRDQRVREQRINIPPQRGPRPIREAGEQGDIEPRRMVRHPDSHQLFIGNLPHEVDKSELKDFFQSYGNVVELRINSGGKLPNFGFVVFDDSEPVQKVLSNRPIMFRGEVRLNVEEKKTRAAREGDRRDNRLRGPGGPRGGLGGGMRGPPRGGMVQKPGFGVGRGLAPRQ
Method: RNA Bind-n-Seq
Molecule type: RNA
Medium: in vitro
Tested at: 200 nM
Notes: whole 134-nt RNA, ends assumed
With: 150 mM LiCl
Relative to: input library
Reading: higher = stronger binding
Library: 7-deaza-guanosine replaces G
| Oligonucleotide | log2 enrichment |
| --- | --- |
| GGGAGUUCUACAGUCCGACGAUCUAACUUUAGAGGAGGAUCUGAUGGAUAUGGCAGUGGAGGUGGAUUUGGGGAUGGCUAUAAUGGGUAUGGAGGAGGACCUGGAGGUGGCAAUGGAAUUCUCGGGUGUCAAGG | -0.0786 |
| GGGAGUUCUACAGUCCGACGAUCCAAGUCCUGUGCUACACAUCGUAUGUACCGAAUCGGAAAGGGGAAAGGGAAAGGGAAAGUAUUAUGUUACGCCGUUCGGAUCUGCACUUCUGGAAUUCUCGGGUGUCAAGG | -0.425 |
| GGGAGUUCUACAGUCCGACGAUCCACAGACAACACGCACCCACACAGACACAGAGGGAAGGGGUUGGGAUGGGGACAAGGUGCACAGCAGGGCGGGGUAGGACCCCAGCCCCUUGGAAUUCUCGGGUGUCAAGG | -0.0471 |
| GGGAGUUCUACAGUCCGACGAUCAAGUCCUGUGCUACACAUCGUAUGUACCGAAUCGGGGCCCCGGCCCCGGGGCCCCGGAAAGUAUUAUGUUACGCCGUUCGGAUCUGCACUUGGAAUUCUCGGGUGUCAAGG | -0.152 |
| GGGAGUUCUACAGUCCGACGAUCCCUGUGCUACACAUCGUAUGUACCGAAUCGGGGAAAAAAAGGGGUUUUUUUGGGGAGGGGAAAGUAUUAUGUUACGCCGUUCGGAUCUGCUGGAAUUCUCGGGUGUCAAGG | -0.378 |
| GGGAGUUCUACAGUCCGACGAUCGUCCUGUGCUACACAUCGUAUGUACCGAAUCGGGUUUUUGGGAAAAAAAGGGAAAGGGAAAGUAUUAUGUUACGCCGUUCGGAUCUGCACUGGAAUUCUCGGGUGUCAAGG | -1.58 |
| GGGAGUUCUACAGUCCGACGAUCCUGUGCUACACAUCGUAUGUACCGAAUCGGGAAAAAAAGGGAAAAAAAGGGGAAAAAAAGGAAAGUAUUAUGUUACGCCGUUCGGAUCUGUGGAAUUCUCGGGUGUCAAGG | 0.0544 |
| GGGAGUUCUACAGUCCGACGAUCUAAAUUCAUCUGAAAAUGGUGAGGACAGGCACAAACGCAAAGAAAGAAAGUCAUCAAGAGGCAGAAGUCACUCAAGAUCUAGGUCUCGUGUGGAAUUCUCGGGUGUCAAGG | -2.34 |
| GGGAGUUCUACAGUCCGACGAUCACCAUGCAAGUGGGCAUCUUUGGGAAGUGGGGCAAGGGGGGGAUAGGGAGGGGGGUAACACUUUGGGAACAGGUGGUCCCAGGUCGUUUCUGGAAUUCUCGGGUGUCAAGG | 0.269 |
| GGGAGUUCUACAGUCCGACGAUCCGGCCCUGGUGGCAUGCGGGGAGGAAGAGGUGGCCUCAUGGAUCGUGGUGGUCCCGGUGGAAUGUUCAGAGGUGGCCGUGGUGGAGACAGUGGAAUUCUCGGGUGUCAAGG | 0.503 |
| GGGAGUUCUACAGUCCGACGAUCGUCCUGUGCUACACAUCGUAUGUACCGAAUCGGGGAGGGGUUUUUUUGGGGUUUGGGGAAAGUAUUAUGUUACGCCGUUCGGAUCUGCACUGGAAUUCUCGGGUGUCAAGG | 0.286 |

Series 2
Target: RNA binding protein fox-1 homolog 2, RRM domain, GST-SBP tag (RBFOX2, Homo sapiens, UniProt O43251-10, residues 100-194)
Method: RNA Bind-n-Seq
Molecule type: RNA
Medium: in vitro
Tested at: 365 nM
Notes: natural RNA segment, single round, ends assumed
Relative to: no-protein control
Reading: higher = stronger binding
Construct (chain): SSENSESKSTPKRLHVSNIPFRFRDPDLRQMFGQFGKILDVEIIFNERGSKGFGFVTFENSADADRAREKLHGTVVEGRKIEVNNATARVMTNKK
| Oligonucleotide | RBNS enrichment (R) |
| --- | --- |
| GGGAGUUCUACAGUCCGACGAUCCUUUCUCGGGCUGCUUUUGCGUCGUUGUCCUAGGUGGCCAGAUUGUCUUGAUAAGAGCAGAUCUGGGGACUGAUCGGAUUGGCAGGAAAAGAACAGAGUGCAUCUCUUGGUGGAAUUCUCGGGUGCCAA | 0.262 |
| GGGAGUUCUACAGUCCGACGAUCGCCAAGCUGACUGUGGUAUGUAGCCACUUCAGGGGUUGCGCUUCUCACUAGGUUGGCGGUACAUGUGGCCUUGUGCCCACCCCCAUCCCCAUUGUAGUCAGGUUCCCAGGUGGAAUUCUCGGGUGCCAA | 0.336 |
| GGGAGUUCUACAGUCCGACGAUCUGAUUAUUAAGCAGGGUGGAAGUUCAGUAUUUUGUCAUUUAAAAAGAUUAGUUAUAUAAUGUCUGCUUCCAGCCAGUGAGAAACAUCUAGCCAUACCUUUCUUAUGCAAGUGGAAUUCUCGGGUGCCAA | 0.444 |
| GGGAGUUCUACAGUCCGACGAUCAUUUUGAUUUAUGUCAAAUCCUAAUUCUAUCAUUCAGUCUUGUUUGGAGUUCUGAACCCAUGAUGUUGUAUUAUGCUUCUUUCUCCUCUUAGCACUCUCAAAUUUCAGGUUGGAAUUCUCGGGUGCCAA | 0.439 |
| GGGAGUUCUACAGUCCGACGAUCGCUGUCACUGAAAUGAACUUGAUCUUGAUCUGCUUUGAUAUGGGGACAGAAUCCCCGACUGCACUAUUGAGGGAGUUUCAGAAGAGAAGGAAGAGGUGCUGGAAGGAUGCUGGAAUUCUCGGGUGCCAA | 0.714 |
| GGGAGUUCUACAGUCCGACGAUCGGGUGAAGCCAUCCCAAGGCUGACAGCUCAGUCUUCACCUUGCCUCUGGCCUUGUAUUUCACACCCUGCUCAGUAUGGCUAGCCAGCAGUCCUGAGUAGGAGUCCAGGACUGGAAUUCUCGGGUGCCAA | 0.238 |
| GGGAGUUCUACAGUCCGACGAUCUCUCCAGUCCUCUUUCUGGAAUAGGAAACUCCCAAUAUUUAACCUUCAUUCAUCCUUAACGGUGUGGAAGGGUUGAUGGACUGGAAAGCAAGUGGUUGGUUCGCGUUGGCUGGAAUUCUCGGGUGCCAA | 0.73 |
| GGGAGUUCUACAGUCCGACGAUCCCUUUUAUACCUACGAUUUCAUGUCACAUUUACUAAUAGAAUUAAGGGAAAUAGAAGCCCGUUCUUUCUUACUGCCCCUGGAGGGAGCAUGGCGCUAGGGCUCUCAGCCUUGGAAUUCUCGGGUGCCAA | 0.771 |
| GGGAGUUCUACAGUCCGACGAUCAACUCUGAUCCCGAUGGAGGCUGCACGCCUCCCCCACCCCAUGAUAGCAUCUGUGUGUAUUAAUUCUGAAGAAUUAAAUGUUUAAAUUAGAGUUUAAAUGUUGACGGCGUUGGAAUUCUCGGGUGCCAA | 0.354 |
| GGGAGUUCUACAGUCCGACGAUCGUGGACAGGUUCAGCGUUCCUUCUUUCGCACAACUUUUUUCUAAGUGUUCCAGUGACCAAGCCAGUCAUUCGGACACUGAUUUGCAGUGCAUUGGCAGUAAUUCACAAAUUGGAAUUCUCGGGUGCCAA | 0.666 |
| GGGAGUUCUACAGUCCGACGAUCCAGAGAGUCUCCAAAUAAAAAGGGUUUUGUUCAGAUUAAAAUGUUUACAACAAAAUGUUAAUUAUAUUCUAAAUACAGGGUAUGUUCUAAUCUAUAUUAAGCAAUAAUGCUGGAAUUCUCGGGUGCCAA | 0.878 |
| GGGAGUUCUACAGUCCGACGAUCCACAACCUGAAUUCACCACAGCUGGAAUAGCUGUGGAAAACAAAAUAAAACAACAAAAUUAAUAAUGAAAUGGAGGGGAAUUCUAGAAUUAUAUGCUAAAUGCAUAUUUUUGGAAUUCUCGGGUGCCAA | 1.18 |

Series 3
Target: PABPC1L2, full length, GST fusion (mouse, UniProt A0ABA7IW68)
Method: RNAcompete
Molecule type: RNA
Medium: in vitro
Tested at: 20 nM
Notes: 7-mer, probes averaged, single round
Relative to: mean of 7-mers
Reading: higher = stronger binding
Target sequence (chain): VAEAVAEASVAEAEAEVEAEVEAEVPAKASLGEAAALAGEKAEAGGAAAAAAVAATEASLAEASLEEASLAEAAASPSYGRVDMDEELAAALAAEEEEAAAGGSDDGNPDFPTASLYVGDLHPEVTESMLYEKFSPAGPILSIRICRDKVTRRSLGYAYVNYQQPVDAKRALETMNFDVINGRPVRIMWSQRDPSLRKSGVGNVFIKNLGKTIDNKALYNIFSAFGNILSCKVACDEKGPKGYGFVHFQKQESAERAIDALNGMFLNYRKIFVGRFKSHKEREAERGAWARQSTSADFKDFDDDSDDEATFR
| Oligonucleotide | 7-mer Z-score |
| --- | --- |
| CACAAGG | 0.000733 |
| AUGCGGA | 0.307 |
| UUCGAAC | -0.336 |
| UGAACGA | -0.0409 |
| GCCCCAG | -0.231 |
| UAAGGGC | 0.283 |
| UCGUUCG | -0.552 |
| CUCUCCU | -0.383 |
| UCGCAAG | -0.364 |
| CUGGCGA | -0.0844 |
| GUCAGCC | -0.403 |
| CUUUUGU | -0.331 |
| ACGCUAG | -0.264 |
| AGCUGAU | -0.0935 |
| GACAUAU | -0.0844 |
| UGCCAAA | 0.818 |
| GCAAUUG | -0.0881 |
| CGGACUU | -0.162 |
| GGUCGAA | 0.153 |
| UCCACGU | -0.383 |
| GGGUGAA | 0.227 |
| CUAGACG | -0.0047 |
| CUCGCAU | -0.387 |

Series 4
Target: Sal-like protein 4, full length isoform A (SALL4, Homo sapiens, UniProt Q9UJQ4, residues 1-1053)
Sequence of UniProt Q9UJQ4 (whole entry, looked up): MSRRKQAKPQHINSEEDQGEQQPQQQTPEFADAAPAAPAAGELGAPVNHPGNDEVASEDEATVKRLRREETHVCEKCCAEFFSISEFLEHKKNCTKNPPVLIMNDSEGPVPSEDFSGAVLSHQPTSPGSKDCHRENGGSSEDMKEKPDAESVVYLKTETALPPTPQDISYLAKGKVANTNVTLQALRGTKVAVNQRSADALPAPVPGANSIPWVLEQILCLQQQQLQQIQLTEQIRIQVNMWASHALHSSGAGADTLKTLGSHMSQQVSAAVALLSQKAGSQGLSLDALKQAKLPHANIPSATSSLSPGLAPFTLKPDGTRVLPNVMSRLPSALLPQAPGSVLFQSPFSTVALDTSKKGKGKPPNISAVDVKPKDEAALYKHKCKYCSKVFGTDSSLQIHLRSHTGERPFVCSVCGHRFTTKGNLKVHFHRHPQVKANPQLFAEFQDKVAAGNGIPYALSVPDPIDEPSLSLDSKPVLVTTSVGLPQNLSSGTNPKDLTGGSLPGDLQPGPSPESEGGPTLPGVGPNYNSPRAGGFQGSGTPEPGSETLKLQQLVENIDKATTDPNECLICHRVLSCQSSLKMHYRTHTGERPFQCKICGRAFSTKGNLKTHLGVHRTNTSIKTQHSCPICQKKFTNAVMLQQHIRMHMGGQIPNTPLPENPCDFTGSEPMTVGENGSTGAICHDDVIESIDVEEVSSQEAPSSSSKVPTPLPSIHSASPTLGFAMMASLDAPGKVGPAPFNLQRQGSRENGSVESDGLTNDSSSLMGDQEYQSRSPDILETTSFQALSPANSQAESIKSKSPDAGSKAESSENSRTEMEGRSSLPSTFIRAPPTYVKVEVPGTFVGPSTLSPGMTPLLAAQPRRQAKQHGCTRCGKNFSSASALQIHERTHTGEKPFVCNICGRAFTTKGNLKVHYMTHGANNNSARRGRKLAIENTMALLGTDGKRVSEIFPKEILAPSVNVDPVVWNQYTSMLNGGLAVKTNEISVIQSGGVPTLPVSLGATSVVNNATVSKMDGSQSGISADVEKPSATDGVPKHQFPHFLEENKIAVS
Method: universal PBM
Molecule type: double-stranded DNA, one strand shown
Medium: in vitro
Tested at: 600 nM
Notes: 8-mer, flanks averaged, mean of replicates
Reading: higher = stronger binding
| Oligonucleotide | E-score |
| --- | --- |
| CAGACGTA | 0.0278 |
| GATACTAA | 0.19 |
| GAAGTGCC | -0.171 |
| GCCGCGGA | -0.352 |
| TATAGTAA | 0.322 |
| GGGGACGA | -0.165 |
| GTACACAC | 0.0803 |
| ACTGTCTG | -0.0355 |
| CGAAATTC | 0.122 |
| AATCTGTC | 0.0906 |
| ATCACAAC | 0.207 |
| ATGGATCG | -0.0606 |
| GTTGAAAA | 0.218 |
| TGACGCAA | -0.0515 |
| TATCCGGA | -0.0464 |
| GAAGCGTC | -0.0703 |
| CTTCGAGC | -0.209 |

Series 5
Target: Histone acetyltransferase KAT6A, both winged helices, GST fusion (KAT6A, Homo sapiens, UniProt Q92794, residues 1-181)
Method: protein binding microarray
Molecule type: double-stranded DNA, one strand shown
Medium: in vitro
Tested at: not given
Notes: 8-mer, flanks averaged, mean of 2 arrays, mostly near background
Relative to: not given
Reading: higher = stronger binding
Construct (chain): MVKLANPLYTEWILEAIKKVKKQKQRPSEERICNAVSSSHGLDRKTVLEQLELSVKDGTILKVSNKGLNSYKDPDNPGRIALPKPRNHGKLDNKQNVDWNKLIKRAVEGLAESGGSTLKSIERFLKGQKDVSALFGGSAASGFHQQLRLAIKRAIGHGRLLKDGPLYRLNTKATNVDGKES
| Oligonucleotide | E-score |
| --- | --- |
| CCCAGAGG | -0.153 |
| CTTCTACC | -0.0916 |
| CTGAAATC | -0.11 |
| AGATATGA | -0.0302 |
| AGCGGAAC | 0.27 |
| AAGTACAG | -0.264 |
| AACACTCC | -0.0422 |
| TCGCCGCA | 0.217 |
| GAGTCGGC | 0.132 |
| TGGCAGAA | -0.123 |
| TATTCGCA | -0.0403 |
| CTGGAGTA | -0.143 |
| ACGACCAG | -0.102 |
| AAACGAAA | 0.0152 |
| ACCCATCT | -0.0732 |
| AATCCCGC | 0.274 |
| CACTGGAC | 0.0179 |
| GGCTTTAC | 0.197 |
| CACCGTGA | 0.118 |
| AAGGCTTA | -0.0687 |
| CAGTCCCC | -0.0507 |
| CAATCATC | -0.175 |
| CTAGACTC | -0.0841 |
| AAAAGATC | -0.0875 |
| GAATCTCA | -0.177 |

Repeated from above (series 3):
| Oligonucleotide | 7-mer Z-score |
| --- | --- |
| UCGCAAG | -0.364 |
| GACAUAU | -0.0844 |
| GGGUGAA | 0.227 |
| CUCGCAU | -0.387 |
| CUUUUGU | -0.331 |
| UGAACGA | -0.0409 |
| GCCCCAG | -0.231 |
| UUCGAAC | -0.336 |
| GGUCGAA | 0.153 |
| CUAGACG | -0.0047 |
| GCAAUUG | -0.0881 |
| UGCCAAA | 0.818 |
| AUGCGGA | 0.307 |
| CGGACUU | -0.162 |
